Measurements gathered from unrelated publications.
Each line is one published result; not all experiments were run side by side. Values joined by “and” are separate records of one study, mostly repeats; a detail may differ.

| Structure (SMILES) | cell line | assay | setting | scale | quantity | value |
| --- | --- | --- | --- | --- | --- | --- |
| CCN(CC)CC(=O)Nc1cccc(-n2cc(-c3ccc4ccc(-c5cn(-c6cccc(NC(=O)CN(CC)CC)c6)nn5)cc4c3)nn2)c1 | RCC4 | PCR angiogenesis array, measured: PECAM1 | 5 x IC50, 2 h, normoxia | reference: untreated | fold regulation | -1.06 |
| C=CC(=O)Nc1cc(Nc2nccc(-c3c(-c4cccc(-c5ccccc5)c4)n(C)c4ccccc34)n2)c(OC)cc1N(C)CCN(C)C | NCI-H1975 | cell growth or viability, MTT | 0.5 µM, 72 h |  | inhibition | 73.5% |
| COc1cc(N2CCN(C(=O)C3CCCN3)CC2)ccc1Nc1ncc(Cl)c(Nc2ccccc2P(C)(C)=O)n1 (stereo not drawn) | Ba/F3 EML4-ALK | annexin V flow cytometry | concentration not given, 3 h |  | early apoptotic cells | 4.2% |
| O=C(C[Se]C(=O)C12CC3CC(CC(C3)C1)C2)Nc1cccc(C(F)(F)F)c1 | NCI60 CNS subpanel | cell growth | 10 µM, 48 h, one-dose |  | mean growth percent | -69.2% |
| NC(=O)c1ccc(-c2ccccc2Cl)c2c3c([nH]c12)CC[C@@H](N)C3 | RKO | cell growth or viability |  |  | IC50 | 2.74 nM |
| COc1ccc(Br)c2c1OC1=C(C(=O)CCC1)C2c1c[nH]c2ccccc12 (stereo not drawn) | 3T3-L1 preadipocytes | adipogenesis, Oil Red O staining | IC20, 14 days, single replicate |  | lipid content | 0.734 OD492 |
| Cc1cc(/N=N/c2ccc(/N=N/c3ccc(O)c(C(=O)O)c3)cc2)c(N)cc1N | primary mouse articular chondrocytes | Western blot, measured: Phlpp1 | 25 µM, days 0-6 and 0-9 | reference: vehicle | protein level | 50 to 70% |
| O=C(C[Se]C(=O)c1ccccc1Nc1cccc(C(F)(F)F)c1)Nc1cccc(C(F)(F)F)c1 | NCI60 CNS subpanel | NCI60 five-dose screen |  |  | mean TGI | 3360 nM |
| CC1(C)C[C@@H](Nc2cccc(-c3sc(C(=O)O)c(OCC(=O)O)c3Cl)c2)CCN1S(=O)(=O)Cc1cccc(NC(=O)CN2CCC(c3ccc4c(c3)oc(=O)n4C3CCC(=O)NC3=O)CC2)c1 (stereo partly drawn) | B16-F10 | HTRF, measured: phospho-STAT1 Tyr701 | 10 µM, added: IFN-γ | reference: min-max normalised | pSTAT1 level | 86.1% and 82.4% and 89.5% and 89.4% and 87.8% and 79.4% |
| COc1ccc2c(c1)OC1=C(C(=O)CCC1)C2c1c[nH]c2ccccc12 (stereo not drawn) | 3T3-L1 preadipocytes | adipogenesis, Oil Red O staining | IC20, 14 days, single replicate |  | lipid content | 0.496 OD492 and 0.495 OD492 and 0.485 OD492 |
| C=CC(=O)Nc1cc(Nc2nccc(-c3c(-c4cccc(C(F)(F)F)c4)n(C)c4ccccc34)n2)c(OC)cc1N(C)CCN(C)C | NCI-H1975 | cell growth or viability, MTT | 0.5 µM, 72 h |  | inhibition | 66% |
| CCCCCCc1cccc([C@H](O)C[C@H](CO)NC(=O)CCCCCCCCCCBr)c1 | HeLa | HPLC-MS-MS lipidomics, measured: C20 SM and ceramide | 1 µM, 24 h | reference: SM over Cer | SM/Cer ratio | 41 ,0 |
| Cc1c(Cl)cccc1Nc1ccccc1C(=O)[Se]CC(=O)Nc1cccc(C(F)(F)F)c1 | NCI60 melanoma subpanel | cell growth | 10 µM, 48 h, one-dose |  | mean growth percent | -78.9% |
| COc1cc(N(C)CCN(C)C)c(NC(=O)/C=C/c2c3ccccc3cc3ccccc23)cc1Nc1nccc(-c2cn(C)c3ccccc23)n1 | NCI-H1975 | cell growth or viability, MTT | 0.5 µM, 72 h |  | inhibition | 63.4% |
| COC(=O)c1cc(NC2=NC(=O)C(=Cc3ccc(N(C)C)cc3)S2)ccc1OC(C)=O | MCF7 | GC-MS, measured: L-5-Oxoproline | 1 µM | reference: DMSO | metabolite level | 0.32 fold change |
| O=C(C[Se]C(=O)c1cc2ccccc2o1)Nc1cccc(C(F)(F)F)c1 | NCI60 leukaemia subpanel | NCI60 five-dose screen |  |  | GI50 | 1870 nM |
| COc1ccc(NC(=O)c2c(Nc3ccccc3)sc(C(=O)N/N=C/c3ccc(OC)c(OC)c3)c2NC(C)=O)cc1 | HepG2 | cell growth or viability, SRB | 1 nM, 48 h |  | viability | 99.9% |
| CCOC(=O)c1ccc(NC(=O)C(C#N)=C2C(=O)c3ccccc3C2=O)cc1 | HepG2 | cell growth or viability, MTT | 50 µM, 24 h |  | viability | 37.9% |
| CN(C)C(=O)c1ccnc(N2Cc3cn(Cc4ccc(Cl)cc4)nc3C2)n1 | HEK293 expressing GluA1 and GluA2 | glutamate excitotoxic cell death, CellTox Green | added: glutamate |  | IC50 | 25 nM |
| CN1CCCNC(=O)c2cccc(c2)C(=O)NCCCN(C)CCCNc2cccc3c2C(=O)c2cccc(c2C3=O)NCCC1 | SAS | RNA-seq, measured: RXYLT1-AS1 mRNA | 1 µM, 6 h | reference: untreated cells | log2 fold change | 0.73 |

| Structure (SMILES) | cell line | assay | setting | scale | quantity | value |
| --- | --- | --- | --- | --- | --- | --- |
| COc1cc(N(C)CCN(C)C)c(NC(=O)/C=C/c2cc(C)cc(C)c2)cc1Nc1nccc(-c2cn(C)c3ccccc23)n1 | NCI-H1975 | cell growth or viability, MTT | 0.5 µM, 72 h |  | inhibition | 59.4% |
| CC(C)c1ccc(N(C)c2ccc3c(c2)OCC[C@H]3CNc2cnccc2C(=O)O)cc1 | NIH:OVCAR-3 | cell growth, CellTiter-Glo | 7 days |  | IC50 | ≥ 10000 nM |
| COc1cc(N(C)CCN(C)C)c(NC(=O)/C=C/c2cc(C)c(F)c(C)c2)cc1Nc1nccc(-c2cn(C)c3ccccc23)n1 | NCI-H1975 | cell growth or viability, MTT | 0.5 µM, 72 h |  | inhibition | 56.7% |
| CN(C)C(=O)c1ccnc(N2Cc3cn(Cc4ccc(C#N)cc4)nc3C2)n1 | HEK293 expressing GluA1 and GluA2 | glutamate excitotoxic cell death, CellTox Green | added: glutamate |  | IC50 | 84 nM |
| Cn1ncc2cc(-c3cncc(Cl)c3N3CCC4(CCNC4=O)CC3)ccc21 | LS174T | gene expression, microarray, measured: HDAC2 mRNA | concentration not given, 24 h | reference: untreated cells | log2 fold change | -2.01 |
| O=C(C[Se]C(=O)c1ccccc1Nc1ccccc1)Nc1cccc(C(F)(F)F)c1 | NCI60 leukaemia subpanel | NCI60 five-dose screen |  |  | GI50 | 1730 nM |
| CCc1n(CC(=O)O[C@@H]2C[C@H](C)CC[C@H]2C(C)C)c2ccccc2[n+]1C | HTS cells (mouse) | gene microarray, measured: TRIB3 | 1 µM, 12 h, unit not given | reference: untreated | mRNA level | 8.88 |
| N#Cc1cccc(/C=C/C(=O)c2ccc(O)cc2)c1 | U-87 MG | measured: ATOH8 | concentration not given | reference: untreated | fold change | 0.054 |
| CN(C)CCN1CCN(c2ccc3nc(-c4ccc5nc(-c6ccc(C(F)(F)F)cc6)[nH]c5c4)[nH]c3c2)CC1 | HOP-92 | SRB | 10 µM, 48 h |  | growth percent | 75.8% |
| C1=[N+]2CCCC[N+]3=Cc4ccc5[n]4[Au-]23[n]2c1ccc2-c1nc2ccccc2nc1-5.F[P-](F)(F)(F)(F)F | UACC-257 | NCI60 five-dose screen |  |  | TGI | 4 -log M |
| Cc1cc(Cl)cc(-c2ccnc3cc(CN4C(=O)C5C(C4=O)C5(C)C)sc23)c1C[C@@H]1CNCCO1 (stereo partly drawn) | CHP-212 resistant | annexin V/PI flow cytometry | 1 µM, 48 h |  | apoptotic cells | 12.3% |
| CNS(=O)(=O)Nc1nccc(Cc2c(C)c3ccc(Oc4ncccc4F)cc3oc2=O)c1F | NKM-1 | cell viability, CellTiter-Glo | 7 days |  | IC50 | > 1000 nM |
| CCN(C(=O)c1cc(F)ccc1Oc1nncnc1N1CCC2(C1)CN([C@H](CCCN(C)CCOC)C(C)C)C2)C(C)C | COLO-678 | cell growth or viability | 72 h |  | GI50 | > 10000 nM |
| O=C(C[Se]C(=O)c1cccnc1Nc1cccc(C(F)(F)F)c1)Nc1cccc(C(F)(F)F)c1 | NCI60 melanoma subpanel | cell growth | 10 µM, 48 h, one-dose |  | mean growth percent | -88.1% |
| N#Cc1ccnc(N2Cc3cnn(Cc4ccc(F)cc4)c3C2)n1 | HEK293 expressing GluA1 and GluA2 | glutamate excitotoxic cell death, CellTox Green | added: glutamate |  | IC50 | 247 nM |
| O=C(C[Se]C(=O)c1ccc2ccccc2c1)Nc1cccc(C(F)(F)F)c1 | HCC 2998 | cell growth or viability, SRB |  |  | GI50 | 420 nM |
| Cc1ncsc1-c1ccc(C(C)NC(=O)C2CC(O)CN2C(=O)C(NC(=O)CCCCCCCCCCN2CCCC(Nc3ncc(Cl)c(Nc4ccccc4S(=O)(=O)C(C)C)n3)C2)C(C)(C)C)cc1 (stereo not drawn) | 22Rv1 | RNA-seq, measured: LHX4 mRNA | concentration not given | reference: DMSO | log2 fold change | -1.41 |
| O=C(C[Se]C(=O)c1cc2ccccc2[nH]1)Nc1cccc(C(F)(F)F)c1 | NCI60 melanoma subpanel | total growth inhibition, inhibitor | five-dose |  | mean TGI | 2870 nM |
| CC(=O)NCCCN(C)CCCNc1cccc2c1C(=O)c1cccc(NCCCN(C)CCCNC(C)=O)c1C2=O | SAS | RNA-Seq, measured: SPIN1 mRNA | 1 µM, 6 h | reference: untreated cells | log2 fold change | -0.738 |
